Measured values of several laboratories.
Numbered parts are unrelated; each lists some results of a single study.
Sequence of UniProt P11802 (whole entry, looked up): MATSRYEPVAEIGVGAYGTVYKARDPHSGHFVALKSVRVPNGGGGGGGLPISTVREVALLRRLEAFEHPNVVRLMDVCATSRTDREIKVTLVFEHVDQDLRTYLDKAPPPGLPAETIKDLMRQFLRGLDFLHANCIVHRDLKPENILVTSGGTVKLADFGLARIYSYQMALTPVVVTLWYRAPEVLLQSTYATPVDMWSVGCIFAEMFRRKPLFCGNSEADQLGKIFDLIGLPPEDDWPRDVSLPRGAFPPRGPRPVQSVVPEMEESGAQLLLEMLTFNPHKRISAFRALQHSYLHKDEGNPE
Sequence of UniProt Q9NZH0 (whole entry, looked up): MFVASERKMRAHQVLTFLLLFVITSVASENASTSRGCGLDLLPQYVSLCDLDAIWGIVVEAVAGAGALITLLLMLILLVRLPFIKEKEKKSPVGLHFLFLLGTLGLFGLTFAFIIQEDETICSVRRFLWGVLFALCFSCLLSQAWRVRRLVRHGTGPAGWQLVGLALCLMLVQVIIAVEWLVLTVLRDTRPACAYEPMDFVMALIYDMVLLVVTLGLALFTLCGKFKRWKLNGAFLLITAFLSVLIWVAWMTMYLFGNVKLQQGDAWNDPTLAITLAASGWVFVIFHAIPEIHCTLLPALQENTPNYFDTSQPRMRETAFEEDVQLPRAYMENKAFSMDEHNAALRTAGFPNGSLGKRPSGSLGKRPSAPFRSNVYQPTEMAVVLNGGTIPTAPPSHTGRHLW
Sequence of UniProt P32239 (whole entry, looked up): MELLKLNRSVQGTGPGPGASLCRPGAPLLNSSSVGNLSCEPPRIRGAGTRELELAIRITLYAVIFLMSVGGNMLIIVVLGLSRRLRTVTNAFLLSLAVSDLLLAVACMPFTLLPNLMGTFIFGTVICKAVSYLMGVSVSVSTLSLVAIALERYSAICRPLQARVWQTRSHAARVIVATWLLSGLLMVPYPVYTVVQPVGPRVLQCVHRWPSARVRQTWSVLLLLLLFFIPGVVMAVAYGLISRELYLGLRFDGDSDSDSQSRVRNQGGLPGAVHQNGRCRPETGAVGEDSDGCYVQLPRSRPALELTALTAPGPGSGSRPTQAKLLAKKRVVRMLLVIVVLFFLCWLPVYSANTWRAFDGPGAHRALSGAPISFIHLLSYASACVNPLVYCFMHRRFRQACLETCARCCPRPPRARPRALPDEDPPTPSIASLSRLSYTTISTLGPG
Sequence of UniProt Q13177 (whole entry, looked up): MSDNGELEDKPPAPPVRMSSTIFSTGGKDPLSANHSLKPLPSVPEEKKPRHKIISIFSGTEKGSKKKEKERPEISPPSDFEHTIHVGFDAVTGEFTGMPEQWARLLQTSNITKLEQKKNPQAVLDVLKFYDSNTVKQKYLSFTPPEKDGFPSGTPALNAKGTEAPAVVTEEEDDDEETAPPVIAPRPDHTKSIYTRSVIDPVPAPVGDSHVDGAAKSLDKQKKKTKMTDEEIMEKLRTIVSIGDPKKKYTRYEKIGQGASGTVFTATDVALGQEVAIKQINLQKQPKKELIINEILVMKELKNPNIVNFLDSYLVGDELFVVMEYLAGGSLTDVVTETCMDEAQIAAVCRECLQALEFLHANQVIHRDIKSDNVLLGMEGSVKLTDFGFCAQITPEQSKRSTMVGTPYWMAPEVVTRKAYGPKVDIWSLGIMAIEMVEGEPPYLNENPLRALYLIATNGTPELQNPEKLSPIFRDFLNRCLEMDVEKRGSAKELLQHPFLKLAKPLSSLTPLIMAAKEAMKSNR
Sequence of UniProt Q9Y3S1 (whole entry, looked up): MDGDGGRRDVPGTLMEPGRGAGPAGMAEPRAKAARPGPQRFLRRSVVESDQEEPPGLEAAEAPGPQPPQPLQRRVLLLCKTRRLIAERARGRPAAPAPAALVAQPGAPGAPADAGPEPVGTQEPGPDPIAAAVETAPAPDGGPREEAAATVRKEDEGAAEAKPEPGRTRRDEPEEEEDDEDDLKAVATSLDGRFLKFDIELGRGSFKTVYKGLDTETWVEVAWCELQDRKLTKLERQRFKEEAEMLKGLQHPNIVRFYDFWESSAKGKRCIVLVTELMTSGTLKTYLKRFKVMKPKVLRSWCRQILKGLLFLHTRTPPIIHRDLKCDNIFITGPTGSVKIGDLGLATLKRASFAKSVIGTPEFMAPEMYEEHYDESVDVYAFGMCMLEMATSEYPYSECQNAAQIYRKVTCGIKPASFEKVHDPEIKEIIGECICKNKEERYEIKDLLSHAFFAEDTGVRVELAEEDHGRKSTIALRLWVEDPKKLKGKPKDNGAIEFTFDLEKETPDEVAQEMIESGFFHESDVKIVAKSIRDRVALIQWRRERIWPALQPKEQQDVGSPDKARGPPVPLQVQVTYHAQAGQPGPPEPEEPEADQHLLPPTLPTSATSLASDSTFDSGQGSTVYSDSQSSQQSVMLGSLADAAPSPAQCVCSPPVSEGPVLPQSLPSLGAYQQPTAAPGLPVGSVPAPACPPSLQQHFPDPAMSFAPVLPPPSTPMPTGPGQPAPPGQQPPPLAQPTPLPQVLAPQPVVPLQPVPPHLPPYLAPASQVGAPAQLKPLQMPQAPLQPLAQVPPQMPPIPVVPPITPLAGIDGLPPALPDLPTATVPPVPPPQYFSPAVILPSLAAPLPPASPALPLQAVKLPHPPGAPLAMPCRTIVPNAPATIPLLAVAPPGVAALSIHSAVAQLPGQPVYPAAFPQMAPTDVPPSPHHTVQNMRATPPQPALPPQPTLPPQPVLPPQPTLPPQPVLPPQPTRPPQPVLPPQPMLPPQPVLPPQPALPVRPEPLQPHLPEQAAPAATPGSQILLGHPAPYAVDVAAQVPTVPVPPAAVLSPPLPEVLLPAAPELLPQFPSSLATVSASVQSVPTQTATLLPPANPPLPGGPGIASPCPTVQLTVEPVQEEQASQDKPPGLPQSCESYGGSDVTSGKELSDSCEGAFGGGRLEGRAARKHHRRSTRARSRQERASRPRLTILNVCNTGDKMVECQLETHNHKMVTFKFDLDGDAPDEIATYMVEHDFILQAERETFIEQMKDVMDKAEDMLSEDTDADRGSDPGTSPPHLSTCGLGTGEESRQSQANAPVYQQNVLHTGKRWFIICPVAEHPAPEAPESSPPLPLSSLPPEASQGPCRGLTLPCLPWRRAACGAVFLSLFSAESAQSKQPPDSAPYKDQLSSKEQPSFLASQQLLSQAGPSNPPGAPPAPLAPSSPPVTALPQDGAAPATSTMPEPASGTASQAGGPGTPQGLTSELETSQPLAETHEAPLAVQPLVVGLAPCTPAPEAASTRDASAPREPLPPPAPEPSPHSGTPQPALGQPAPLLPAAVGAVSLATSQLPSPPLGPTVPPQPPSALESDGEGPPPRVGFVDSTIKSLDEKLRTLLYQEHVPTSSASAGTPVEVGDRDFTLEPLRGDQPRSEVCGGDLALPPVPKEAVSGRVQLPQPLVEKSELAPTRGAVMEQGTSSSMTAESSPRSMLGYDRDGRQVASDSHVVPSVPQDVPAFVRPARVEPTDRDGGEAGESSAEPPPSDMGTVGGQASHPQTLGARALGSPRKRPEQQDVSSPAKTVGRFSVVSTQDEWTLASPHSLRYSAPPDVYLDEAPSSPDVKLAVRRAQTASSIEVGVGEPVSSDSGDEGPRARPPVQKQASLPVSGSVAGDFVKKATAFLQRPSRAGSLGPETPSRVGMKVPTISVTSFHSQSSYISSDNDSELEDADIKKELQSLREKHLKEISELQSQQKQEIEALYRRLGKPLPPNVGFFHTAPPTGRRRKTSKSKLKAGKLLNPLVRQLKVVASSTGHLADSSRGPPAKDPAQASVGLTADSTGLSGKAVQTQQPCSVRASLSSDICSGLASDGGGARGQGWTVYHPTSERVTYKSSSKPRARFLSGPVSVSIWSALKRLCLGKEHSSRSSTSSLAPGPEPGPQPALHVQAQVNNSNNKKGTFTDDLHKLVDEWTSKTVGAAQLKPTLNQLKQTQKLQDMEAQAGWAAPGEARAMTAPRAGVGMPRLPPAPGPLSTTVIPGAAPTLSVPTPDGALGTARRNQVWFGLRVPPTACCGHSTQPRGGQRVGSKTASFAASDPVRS
Sequence of UniProt Q8IVH8 (whole entry, looked up): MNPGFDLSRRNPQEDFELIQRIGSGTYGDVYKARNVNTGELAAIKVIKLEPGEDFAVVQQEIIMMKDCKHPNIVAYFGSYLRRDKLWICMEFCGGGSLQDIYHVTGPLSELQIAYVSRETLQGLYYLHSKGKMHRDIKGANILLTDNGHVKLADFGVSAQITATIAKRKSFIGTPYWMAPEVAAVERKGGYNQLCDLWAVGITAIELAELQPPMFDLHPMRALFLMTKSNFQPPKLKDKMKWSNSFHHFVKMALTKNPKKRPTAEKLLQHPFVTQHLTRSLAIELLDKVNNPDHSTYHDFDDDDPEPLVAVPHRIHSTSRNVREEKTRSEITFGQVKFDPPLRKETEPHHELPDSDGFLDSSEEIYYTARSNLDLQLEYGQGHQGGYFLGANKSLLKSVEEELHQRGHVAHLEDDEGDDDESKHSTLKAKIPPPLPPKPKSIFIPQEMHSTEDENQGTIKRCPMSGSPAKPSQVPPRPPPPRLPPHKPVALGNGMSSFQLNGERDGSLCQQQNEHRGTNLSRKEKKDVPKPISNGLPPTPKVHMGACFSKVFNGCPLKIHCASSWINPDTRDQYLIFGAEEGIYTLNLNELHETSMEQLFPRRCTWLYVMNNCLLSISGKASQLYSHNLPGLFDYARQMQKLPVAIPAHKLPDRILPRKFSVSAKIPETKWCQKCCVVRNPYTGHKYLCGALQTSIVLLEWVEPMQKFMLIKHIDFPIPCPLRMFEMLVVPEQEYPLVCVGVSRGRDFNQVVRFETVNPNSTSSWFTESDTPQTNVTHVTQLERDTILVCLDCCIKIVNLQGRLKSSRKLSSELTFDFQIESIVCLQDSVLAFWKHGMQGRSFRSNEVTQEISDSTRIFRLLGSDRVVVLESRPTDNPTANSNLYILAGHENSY

Set 1 — mode: inhibitor; concentration: 10 µM; baseline: control; endpoint: remaining activity
Target: Diamine acetyltransferase 1 (Homo sapiens, UniProt P21673)
Target sequence (P21673 1-171): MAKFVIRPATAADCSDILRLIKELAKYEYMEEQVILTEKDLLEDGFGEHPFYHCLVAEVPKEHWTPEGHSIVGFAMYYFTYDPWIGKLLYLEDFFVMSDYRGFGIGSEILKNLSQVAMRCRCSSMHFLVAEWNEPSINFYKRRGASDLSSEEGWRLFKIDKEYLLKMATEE
CC(C)CNC(=O)/C=C/C=C/c1ccc2c(c1)OCO2: 103%
CC1(C)[C@@H](O)CC[C@]2(C)[C@H]3C(=O)C=C4[C@H]5C[C@@](C)(C(=O)O)CC[C@]5(C)CC[C@@]4(C)[C@]3(C)CC[C@@H]12: 89%
O=C1C[C@@H](c2ccc(O)cc2)Oc2cc(O[C@@H]3O[C@H](CO)[C@@H](O)[C@H](O)[C@H]3O)ccc21: 83.1%
COc1ccc(-c2cc(=O)c3c(OC)c(OC)c(OC)c(OC)c3o2)cc1OC: 87.3%
COc1c(O[C@@H]2O[C@H](CO)[C@@H](O)[C@H](O)[C@H]2O)cc2c(c1O)C(=O)c1c(cc(C)c(O)c1OC)C2=O: 132%
COc1cc(/C=C/C(=O)N2CCC=CC2=O)cc(OC)c1OC: 111%
CCCCCCCCCCCCCC(C)=O: 94.4%
C=C(CCC(C(=O)O)[C@H]1[C@H](O)C[C@@]2(C)C3=CC[C@H]4C(C)(C)[C@@H](OC(C)=O)CC[C@]4(C)C3=CC[C@]12C)C(C)C (stereo partly shown): 87.6%
C=C(C)[C@@H]1CC[C@@H](C)C[C@H]1O: 95.7%
CCCCCCCCCCCCCCCCC(=O)O: 98.4%
C[C@H]1[C@H](C)CC[C@]2(CO)CC[C@]3(C)C(=CC[C@@H]4[C@@]5(C)CC[C@H](O)C(C)(C)[C@@H]5CC[C@]43C)[C@H]12: 105%
C[C@@H]1O[C@@H](O[C@H]2[C@H](O[C@H]3CC[C@@]4(C)[C@@H](CC[C@]5(C)[C@@H]4CC=C4[C@@H]6CC(C)(C)CC[C@]6(C(=O)O[C@@H]6O[C@H](CO[C@@H]7O[C@H](CO)[C@@H](O)[C@H](O)[C@H]7O)[C@@H](O)[C@H](O)[C@H]6O)CC[C@]45C)[C@]3(C)CO)OC[C@H](O)[C@@H]2O)[C@H](O)[C@H](O)[C@H]1O: 107%
C/C=C/C=C/C=C\CC/C=C/C(=O)NCC(C)(C)O: 89.8%
C[C@H]1CC[C@@]2(O)C(C)(C)[C@@H]3CC[C@@]2(C)[C@H]1C3: 91.6%

Set 2 — effect on: cell-free assay; technique: competition with immobilised ligand; concentration: 0.1 µM; endpoint: remaining binding
SMILES: C[C@@H]1CN(c2cc(-c3n[nH]c4ccc(OC5(C)CC5)cc34)ncn2)C[C@H](C)O1
Vascular endothelial growth factor receptor 2 (KDR, Homo sapiens, UniProt P35968): 82%
Dual specificity protein kinase CLK4 (CLK4, Homo sapiens, UniProt Q9HAZ1): 87%
Wee1-like protein kinase 2 (WEE2, Homo sapiens, UniProt P0C1S8): 100%
Cyclin-dependent kinase 4 (CDK4, Homo sapiens, UniProt P11802): 71%
Serine/threonine-protein kinase VRK2 (VRK2, Homo sapiens, UniProt Q86Y07): 65%
Tyrosine-protein kinase ABL1, non-phosphorylated (ABL1, Homo sapiens, UniProt P00519, H396P): 96%
Cyclin-dependent kinase 4, with cyclin D1 (CDK4, Homo sapiens, UniProt P11802): 97%
Ribosomal protein S6 kinase alpha-3, N-terminal kinase domain (RPS6KA3, Homo sapiens, UniProt P51812): 73%
Phosphatidylinositol 4,5-bisphosphate 3-kinase catalytic subunit alpha isoform (PIK3CA, Homo sapiens, UniProt P42336, H1047Y): 76%
Serine/threonine-protein kinase pim-3 (PIM3, Homo sapiens, UniProt Q86V86): 100%
Tyrosine-protein kinase Lck (LCK, Homo sapiens, UniProt P06239): 100%
Epidermal growth factor receptor (EGFR, Homo sapiens, UniProt P00533, del747-750/T751S): 53%
Receptor-type tyrosine-protein kinase FLT3 (FLT3, Homo sapiens, UniProt P36888, R834Q): 78%
cGMP-dependent protein kinase 2 (PRKG2, Homo sapiens, UniProt Q13237): 79%
Hormonally up-regulated neu tumor-associated kinase (HUNK, Homo sapiens, UniProt P57058): 79%
Serine/threonine-protein kinase WNK2 (WNK2, Homo sapiens, UniProt Q9Y3S1): 84%
Mitogen-activated protein kinase kinase kinase kinase 3 (MAP4K3, Homo sapiens, UniProt Q8IVH8): 88%
Ribosomal protein S6 kinase alpha-4, N-terminal kinase domain (RPS6KA4, Homo sapiens, UniProt O75676): 100%
Ephrin type-A receptor 3 (EPHA3, Homo sapiens, UniProt P29320): 93%
MAP/microtubule affinity-regulating kinase 4 (MARK4, Homo sapiens, UniProt Q96L34): 100%
NT-3 growth factor receptor (NTRK3, Homo sapiens, UniProt Q16288): 86%
Transient receptor potential cation channel subfamily M member 6 (TRPM6, Homo sapiens, UniProt Q9BX84): 64%
Tyrosine-protein kinase ABL1, non-phosphorylated (ABL1, Homo sapiens, UniProt P00519): 87%
Serine/threonine-protein kinase SIK3 (SIK3, Homo sapiens, UniProt Q9Y2K2): 74%
Serine/threonine-protein kinase PAK 2 (PAK2, Homo sapiens, UniProt Q13177): 95%

Set 3 — cell line: HaCaT; concentration: 100 µM; time: 60 h; endpoint: viability
Cn1c([N+](=O)[O-])cnc1COC(N)=O: 119%
NC(=O)c1ncn([C@@H]2O[C@H](CO)[C@@H](O)[C@H]2O)c1O: 125%
CC(=O)Oc1ccc(C(c2ccc(OC(C)=O)cc2)c2ccccn2)cc1: 15.9%
CCC(CC)[C@H](NC(C)=O)[C@@H]1[C@H](O)[C@@H](C(=O)O)C[C@H]1NC(=N)N: 125%
CCCC(=O)Nc1ccc(OCC(O)CNC(C)C)c(C(C)=O)c1 (stereo not shown): 146%
Cc1cc(-c2ccc(/N=N/c3ccc4c(S(=O)(=O)O)cc(S(=O)(=O)O)c(N)c4c3O)c(C)c2)ccc1/N=N/c1ccc2c(S(=O)(=O)O)cc(S(=O)(=O)O)c(N)c2c1O: 171%

Set 4 — SMILES: CC(C)CN(C)c1nc(N)c(C(=O)N=C(N)N)nc1Cl; effect on: β-arrestin recruitment; mode: agonist; technique: PRESTO-Tango; concentration: 10 µM; baseline: untreated; endpoint: fold over basal
G-protein coupled receptor family C group 5 member B (GPRC5B, Homo sapiens, UniProt Q9NZH0): 0.85
G-protein coupled receptor 12 (GPR12, Homo sapiens, UniProt P47775): 0.92
G-protein coupled bile acid receptor 1 (GPBAR1, Homo sapiens, UniProt Q8TDU6): 1.11 fold
Gastrin-releasing peptide receptor (GRPR, Homo sapiens, UniProt P30550): 0.79 fold
Delta-type opioid receptor (OPRD1, Homo sapiens, UniProt P41143): 9.87
Adhesion G-protein coupled receptor G5 (ADGRG5, Homo sapiens, UniProt Q8IZF4): 0.52
Relaxin receptor 2 (RXFP2, Homo sapiens, UniProt Q8WXD0): 0.47
Adhesion G protein-coupled receptor F5 (ADGRF5, Homo sapiens, UniProt Q8IZF2): 0.95
Gastrin/cholecystokinin type B receptor (CCKBR, Homo sapiens, UniProt P32239): 0.97
Substance-K receptor (TACR2, Homo sapiens, UniProt P21452): 0.7 fold
Metabotropic glutamate receptor 1 (GRM1, Homo sapiens, UniProt Q13255): 0.98 fold
Adhesion G-protein coupled receptor D1 (ADGRD1, Homo sapiens, UniProt Q6QNK2): 0.78
Histamine H3 receptor (HRH3, Homo sapiens, UniProt Q9Y5N1): 0.6 fold
Bombesin receptor subtype-3 (BRS3, Homo sapiens, UniProt P32247): 3.31
Neuropeptide FF receptor 1 (NPFFR1, Homo sapiens, UniProt Q9GZQ6): 0.72
P2Y purinoceptor 11 (P2RY11, Homo sapiens, UniProt Q96G91): 1.35

Excerpt of the above (set 2):
Serine/threonine-protein kinase PAK 2 (PAK2, Homo sapiens, UniProt Q13177): 95%
Tyrosine-protein kinase Lck (LCK, Homo sapiens, UniProt P06239): 100%
Ribosomal protein S6 kinase alpha-4, N-terminal kinase domain (RPS6KA4, Homo sapiens, UniProt O75676): 100%
Epidermal growth factor receptor (EGFR, Homo sapiens, UniProt P00533, del747-750/T751S): 53%
Tyrosine-protein kinase ABL1, non-phosphorylated (ABL1, Homo sapiens, UniProt P00519, H396P): 96%
Serine/threonine-protein kinase SIK3 (SIK3, Homo sapiens, UniProt Q9Y2K2): 74%
MAP/microtubule affinity-regulating kinase 4 (MARK4, Homo sapiens, UniProt Q96L34): 100%
Mitogen-activated protein kinase kinase kinase kinase 3 (MAP4K3, Homo sapiens, UniProt Q8IVH8): 88%
